Results gathered from unrelated publications.
Compare with care: the assays were run in different laboratories. Numbers after ± are the reported error.

O=C(CCCCCCC(=O)Nc1ccccc1)NO — Tmax (human patients, serum; oral, 600 mg twice daily): 2.3 h
Cn1ncc(Cl)c1-c1cc(C(=O)N[C@H](CN)Cc2ccc(F)c(F)c2)oc1Cl — Tmax (human patients, plasma; oral, 10 mg, single dose, fasting): 3 to 4 h
CC(O)c1cc(C(=O)N[C@@H](C)Cn2ccc(-c3ccc(C#N)c(Cl)c3)n2)[nH]n1 (some centres unmarked) — Tmax (human, male, plasma; oral, 600 mg twice daily, day 7, with food, multiple doses): ~4 h
Nc1ncc(-c2cnn(CCO)c2)c2scc(-c3ccc(NC(=O)Nc4cccc(F)c4)cc3)c12 — Tmax (human patients, plasma; oral, 690 mg once weekly, first dose): 3 h
CC(C)(C)OC[C@@H]1C(=O)NCCN1C(=O)C[C@H](N)Cc1cc(F)c(F)cc1F — Tmax (human, male, plasma; oral, single dose, fixed-dose combination with metformin, fasted, median): 5 h
CCOC(=O)C1=C[C@@H](OC(CC)CC)[C@H](NC(C)=O)[C@@H](N)C1 — Tmax (healthy Indian human, plasma; oral, 75 mg single, Tamiflu reference capsule fed): 2.65 ± 1.34 h
Cc1ccc(NC(=O)c2ccc(CN3CCN(C)CC3)cc2)cc1Nc1nccc(-c2cncc(-c3oncc3C)c2)n1 — Tmax (older healthy human adults, plasma; oral, 250 mg single dose, fed, mean): 5 h
NC(=O)N1CCC(CC(=O)N2CCC([C@H]3c4ncc(Br)cc4CCc4cc(Cl)cc(Br)c43)CC2)CC1 — Tmax (human, plasma; oral, 100 mg twice daily, cycle 2 day 15, multiple dose, median, added: gemcitabine 1000 mg/m2): 5.5 h
CC(C)NC[C@@H](C(=O)N1CCN(c2ncnc3c2[C@H](C)C[C@H]3O)CC1)c1ccc(Cl)cc1 — Tmax (human, Mild hepatic function, plasma; oral, 100 mg single dose, NCI classification, median): 1 h
O=c1[nH]c(=O)c(Cc2cccc(C(F)(F)F)c2)c([C@H]2CC[C@H](c3ccccc3)CC2)[nH]1 — Tmax (human, fasted, plasma; oral, 300 mg single dose, median): 3.01 h
C[C@H]1CN(C2COC2)CCN1c1ccc(Nc2cc(-c3ccnc(N4CCn5c(cc6c5CC(C)(C)C6)C4=O)c3CO)cn(C)c2=O)nc1 — Tmax (healthy human, both sexes, plasma; oral, 100 mg, added: itraconazole oral solution 200 mg, steady state): 3.46 ± 2.58 h
CC(=O)N[C@H]1CC[C@H](NC(=O)CN2CCN(c3nncc(-c4ccc(C)cc4)n3)CC2)CC1 — Tmax (human, plasma; oral, 120 mg once daily, day 7, fed, median): 1.5 h
CNC(=O)c1ccc(-c2cnc3ncc(Cc4ccc5ncccc5c4)n3n2)cc1F — Tmax (human; oral, capsules): 1 to 4 h
CS(=O)(=O)Nc1ccc(C(=O)O[C@@H](Cc2c(Cl)c[n+]([O-])cc2Cl)c2ccc(OC(F)F)c(OCC3CC3)c2)cc1OCC1CC1 — Tmax (human, plasma; inhaled, 14 days, repeat dose twice daily, steady state): 1.5 to 3 h
C#C[C@]1(COP(=O)(O)OP(=O)(O)OP(=O)(O)O)O[C@@H](n2cnc3c(N)nc(F)nc32)C[C@@H]1O — Tmax (healthy humans, fasted, PBMC intracellular; oral, dose not given, individual range, rising single doses): 6 to 48 h
C=C(C)[C@@H]1CC[C@]2(NCCN3CCS(=O)(=O)CC3)CC[C@]3(C)[C@H](CC[C@@H]4[C@@]5(C)CC=C(C6=CC[C@@](CF)(C(=O)O)CC6)C(C)(C)[C@@H]5CC[C@]43C)[C@@H]12 — Tmax (human; oral, 100 mg once daily, day 14, multiple ascending dose): 4 h
Nc1nc2[nH]cc(CCc3ccc(C(=O)N[C@@H](CCC(=O)O)C(=O)O)cc3)c2c(=O)[nH]1 — Tmax (human cancer patients, plasma; intravenous, dose not given, cycle 1 day 1, chemotherapy alone): 0.18 h
CCc1cc(/C(C)=N/OCc2ccc(C3CCCCC3)c(C(F)(F)F)c2)ccc1CN1CC(C(=O)O)C1 — Tmax (healthy human, plasma; oral, 4 mg, median, added: fluconazole steady state): 4 h
CO[C@H]1C[C@@H]2CC[C@@H](C)[C@@](O)(O2)C(=O)C(=O)N2CCCC[C@H]2C(=O)O[C@H]([C@H](C)C[C@@H]2CC[C@@H](OCCO)[C@H](OC)C2)CC(=O)[C@H](C)/C=C(\C)[C@@H](O)[C@@H](OC)C(=O)[C@H](C)C[C@H](C)/C=C/C=C/C=C/1C — Tmax (healthy adult human, blood; 0.75 mg single dose, median, compound alone): 2 h
COC(=O)c1ccc2c(c1)NC(=O)/C2=C(\Nc1ccc(N(C)C(=O)CN2CCN(C)CC2)cc1)c1ccccc1 — Tmax (healthy human controls matched to Child-Pugh B, plasma; oral, 100 mg single dose, median): 3 h
CN(Cc1cnc2nc(N)nc(N)c2n1)c1ccc(C(=O)N[C@@H](CCC(=O)O)C(=O)O)cc1 — Tmax (human, plasma; oral, day 8, median, added: isavuconazole co-administration): 1 h
CCCC[C@H](NC(C)=O)C(=O)N[C@H]1CCC(=O)NC[C@@H](C(=O)N[C@@H](Cc2c[nH]c3ccccc23)C(N)=O)NC(=O)[C@H](CCCNC(=N)N)NC(=O)[C@@H](Cc2ccccc2)NC(=O)[C@H](Cc2c[nH]cn2)NC1=O — Tmax (healthy human, both sexes, plasma; subcutaneous, 1.0 mg once daily, day 1, median): 0.5 h
Cc1[nH]c(/C=C2\C(=O)Nc3ccc(F)cc32)c(C)c1C(=O)N[C@H]1CCN(C(=O)N(C)C)C1 — Tmax (human, plasma; oral, 200 mg once daily multiple dosing, median, added: everolimus 5 mg): 2.02 h
CN(Cc1cnc2nc(N)nc(N)c2n1)c1ccc(C(=O)N[C@@H](CCC(=O)O)C(=O)O)cc1 — Tmax (human, both sexes, plasma; oral, 15 mg, day 1, alone, median): 1.27 h
CC(C)c1nc(N(C)S(C)(=O)=O)nc(-c2ccc(F)cc2)c1/C=C/[C@@H](O)C[C@@H](O)CC(=O)O — Tmax (human, plasma; oral, median, added: darolutamide): 4.07 h
COC(=O)C(c1ccccc1Cl)N1CCC(S)C(=CC(=O)O)C1 (centres unmarked) — Tmax (human patients, CYP3A4 wt/wt, plasma; oral, 75 mg clopidogrel daily, day 7, median): 1 h
O=C(Cc1cccc(OC(F)(F)F)c1)Nc1ccc(CCCCc2nnc(NC(=O)Cc3ccccn3)s2)nn1 — Tmax (human patients, plasma; oral, 800 mg three times daily fasted, cycle 1 day 15 steady state): 2.02 h
Cc1ccc(C(=O)N2CCOC[C@H]2Cc2cccc(-n3nccn3)c2)c(-n2nccn2)c1 — Tmax (healthy human, plasma; oral, 100 mg initial dose, day 8): 3 h
CNC(=O)c1c(C)oc2cc(Oc3ncnc4cc(OC)c(OC)cc34)ccc12 — Tmax (human, plasma; oral, 5 mg, fasted, added: rabeprazole 40 mg): 3.5 h
CCS(=O)(=O)N1CC(CC#N)(n2cc(-c3ncnc4[nH]ccc34)cn2)C1 — Tmax (healthy Chinese human, plasma; oral, single dose, 2 to 10 mg): 0.75 to 1 h
C[C@H](N)C(=O)N1C[C@H](CCCB(O)O)[C@](N)(C(=O)O)C1 — Tmax (human, moderate renal impairment, plasma; oral, 50 mg, cycle 1 day 1, added: pembrolizumab): 5.9 h
COc1ccnc(C[S+]([O-])c2nc3ccc(OC(F)F)cc3[nH]2)c1OC (centres unmarked) — Tmax (HPLC; human CYP2C19 normal metabolizers, plasma; oral, 40 mg/day, day 5, esomeprazole): 2.75 ± 1.76 h
N[C@]1(C(=O)O)[C@H]2[C@@H](C[C@@H]1F)[C@@H]2C(=O)O — Tmax (human, both sexes, fed, plasma; oral, 10 mg, day 14, multiple ascending dose): 2.5 h
CC(C)c1nc(N(C)S(C)(=O)=O)nc(-c2ccc(F)cc2)c1/C=C/[C@@H](O)C[C@@H](O)CC(=O)O — Tmax (human female, plasma; oral, 20 mg, given alone): 2.8 h
N#C[C@@H]1C[C@@H]2C[C@@H]2N1C(=O)[C@@H](N)C12CC3CC(CC(O)(C3)C1)C2 — Tmax (healthy human subjects, plasma; oral, 10 mg, day 10, median, added: diltiazem extended-release 360 mg): 0.5 h
COc1cc2ncnc(Nc3ccc(F)c(Cl)c3)c2cc1OCCCN1CCOCC1 — Tmax (human, plasma; oral, 250 mg, median, added: vorinostat 400 mg): 4.1 h
CC(C)[C@H](N)C(=O)NCCCS(=O)(=O)O — Tmax (human, plasma; oral, 340 mg capsule, day 14, fed, multiple dosing): 0.944 ± 0.388 h
O=C(NC[C@H](O)CO)c1ccncc1Nc1ccc(I)cc1F — Tmax (human; oral, 60 mg, single dose with FOLFIRI): 0.79 h
C[C@@H](Nc1cc(F)cc(F)c1)c1cc(C(=O)N(C)C)cc2c(=O)cc(N3CCOCC3)oc12 — Tmax (human, plasma; oral, multiple dosing, median): 1.5 to 3 h
CN(CCOc1ccc(CC2SC(=O)NC2=O)cc1)c1ccccn1 (centres unmarked) — Tmax (human, both sexes, plasma; oral, 4 mg, day 3, median, added: SCY-078 750 mg): 1 h
COc1ccc2nc([S@@+]([O-])Cc3ncc(C)c(OC)c3C)[nH]c2c1 — Tmax (HPLC; human CYP2C19 intermediate metabolizers, plasma; oral, 40 mg/day, day 1, pantoprazole): 7.25 ± 6.92 h
CC(=O)c1c(C)c2cnc(Nc3ccc(N4CCNCC4)cn3)nc2n(C2CCCC2)c1=O — Tmax (human; oral, 75 mg/m^2 single dose, day 1): 5.2 ± 2 h
CNc1nc(Nc2ccc(-n3cnc(C)n3)c(OC)c2)nc2c1CC[C@H]2c1ccc(F)cc1 — Tmax (human; oral, 100 mg once daily, day 14, multiple ascending dose, median): 8.5 h
O=C([O-])CCCCCCCNC(=O)c1ccccc1O.[Na+] — Tmax (human, mild hepatic impairment, plasma; oral, once daily, day 10, after dose 10, median): 0.5 h
COCCCCn1c(C(=O)N(CC(C)C)[C@@H]2CNC[C@H](C(=O)N3CCOCC3)C2)nc2ccccc21 — Tmax (non-elderly human, plasma; oral, 160 mg once daily, day 1): 1 h
CC#CC(=O)NCCCC(=O)c1nc(-c2ccc(C(=O)Nc3ccccn3)cc2)c2c(N)nccn12 — Tmax (human, healthy control, plasma; oral, 50 mg acalabrutinib, single, median): 1.5 h
Cn1cnc2c(F)c(Nc3ccc(Br)cc3Cl)c(C(=O)NOCCO)cc21 — Tmax (human cancer patients, plasma; oral, 75 mg, cycle 1 day 1): 1.64 ± 0.73 h
